Measured values gathered from unrelated publications.
A part holds a random share of what one study measured.

Sample 1
Target: Fragile X messenger ribonucleoprotein 1, C-terminal low-complexity region (Fmr1, Mus musculus, UniProt P35922)
Technique: RNA Bind-n-Seq
Molecule type: RNA
Matrix: in vitro
Concentration: 200 nM
Notes: whole 134-nt RNA, ends assumed
Together with: 150 mM LiCl
Reference: input library
Reading: higher = stronger binding
Each molecule: 7-deaza-guanosine replaces G
With `GGGAGUUCUACAGUCCGACGAUCGUCCUGUGCUACACAUCGUAUGUACCGAAUCAAAUUUAAAUUUUUUUAAAUUUUUAAAAAAGUAUUAUGUUACGCCGUUCGGAUCUGCACUGGAAUUCUCGGGUGUCAAGG` the log2 enrichment was -2.91.
The log2 enrichment of `GGGAGUUCUACAGUCCGACGAUCGCAGGAAGUAAAAACAAAGGGAAAUGCUUCGGAUAGUGGCAGGGGUGGGGGUUGCUAAGGAAAGGGUGGGAUGGGAGUGGGUAAAGAGUUUGGAAUUCUCGGGUGUCAAGG` is reported as 1.14.
`GGGAGUUCUACAGUCCGACGAUCAGUCCUGUGCUACACAUCGUAUGUACCGAAUCGGGGAGGGGAAAAAAAGGGGAGGGGAAAGUAUUAUGUUACGCCGUUCGGAUCUGCACUUGGAAUUCUCGGGUGUCAAGG` gave a log2 enrichment of 0.0411.
`GGGAGUUCUACAGUCCGACGAUCCAAGUCCUGUGCUACACAUCGUAUGUACCGAAUCGGGAAAAAAAGGGUGGGAGGGAAAGUAUUAUGUUACGCCGUUCGGAUCUGCACUUCUGGAAUUCUCGGGUGUCAAGG` has a log2 enrichment of -0.41.

Sample 2
Target: Interferon regulatory factor 7, full length, phosphomimetic (IRF7, Homo sapiens, UniProt Q92985, residues 1-503, S471D/S472D/S475D/S476D/S477D/S483D/S484D/S487D)
Technique: protein-binding microarray
Molecule type: double-stranded DNA, one strand shown
Matrix: in vitro
Concentration: 2200 nM top
Notes: 60-bp whole probe
Together with: salmon DNA 0.4 mg/ml
Reference: random background probes
Reading: higher = stronger binding
Residues (chain): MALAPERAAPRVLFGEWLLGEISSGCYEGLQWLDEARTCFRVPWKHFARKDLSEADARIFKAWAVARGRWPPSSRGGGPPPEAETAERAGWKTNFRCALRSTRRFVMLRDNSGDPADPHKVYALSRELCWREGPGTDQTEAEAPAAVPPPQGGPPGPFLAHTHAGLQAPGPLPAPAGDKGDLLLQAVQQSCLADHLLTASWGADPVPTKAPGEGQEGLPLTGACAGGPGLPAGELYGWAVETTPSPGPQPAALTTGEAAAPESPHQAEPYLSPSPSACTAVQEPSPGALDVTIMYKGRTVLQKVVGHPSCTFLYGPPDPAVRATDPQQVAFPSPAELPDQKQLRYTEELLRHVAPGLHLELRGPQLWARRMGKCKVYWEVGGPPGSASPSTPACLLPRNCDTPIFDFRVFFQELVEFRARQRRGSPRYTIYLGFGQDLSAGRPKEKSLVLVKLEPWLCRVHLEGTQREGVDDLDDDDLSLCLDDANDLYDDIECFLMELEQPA
`GCCTAGCACGAAGATATCAGTATCGAGACGTGCTAGGTCTTGATTCGCTTGACGCTGCTG`: “fitted relative affinity” -0.21 z-score.
For `GCCTAGCACGGCAATTTGAGTCACTGTGTGTGCTAGGTCTTGATTCGCTTGACGCTGCTG`, “fitted relative affinity” read -0.489 z-score.
`GCCTAGCACTTAGGTTTCCTTCTCCTTTTGTGCTAGGTCTTGATTCGCTTGACGCTGCTG` — result for “fitted relative affinity”: 2.5 z-score.

Sample 3
Target: Histone acetyltransferase KAT6A, both winged helices, GST fusion (KAT6A, Homo sapiens, UniProt Q92794, residues 1-181)
Technique: protein binding microarray
Molecule type: double-stranded DNA, one strand shown
Matrix: in vitro
Concentration: not given
Notes: 8-mer, flanks averaged, mean of 2 arrays, mostly near background
Reference: not given
Reading: higher = stronger binding
Construct (chain): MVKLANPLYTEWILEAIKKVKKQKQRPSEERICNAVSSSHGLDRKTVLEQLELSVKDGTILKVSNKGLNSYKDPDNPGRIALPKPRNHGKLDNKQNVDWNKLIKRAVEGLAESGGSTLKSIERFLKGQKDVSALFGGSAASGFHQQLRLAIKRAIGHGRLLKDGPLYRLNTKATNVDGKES
`CACGCATC` gave an E-score of 0.182.
The E-score of `AGAGTCGG` is reported as 0.0847.
For `CCACGAAA`, the E-score was -0.125.
`TCTCAGAA` has an E-score of -0.183.
With `GCAGCTGA` the E-score was 0.0312.

Mixed results
With `PhoQ, residues 284 288 289 292 302 303 AMDMFI` the fold induction was 0.64 (PhoP, residues 12 14 15 18 19 LHSVQ (Escherichia coli, UniProt P23836); Sort-seq, measured: YFP reporter; E. coli; PhoQ-PhoP variant library, together with: 10 µM Mg2+; reference: high Mg2+ state, higher = stronger signaling).

Excerpt of the above (sample 1):
With `GGGAGUUCUACAGUCCGACGAUCGUCCUGUGCUACACAUCGUAUGUACCGAAUCAAAUUUAAAUUUUUUUAAAUUUUUAAAAAAGUAUUAUGUUACGCCGUUCGGAUCUGCACUGGAAUUCUCGGGUGUCAAGG` the log2 enrichment was -2.91.
The log2 enrichment of `GGGAGUUCUACAGUCCGACGAUCGCAGGAAGUAAAAACAAAGGGAAAUGCUUCGGAUAGUGGCAGGGGUGGGGGUUGCUAAGGAAAGGGUGGGAUGGGAGUGGGUAAAGAGUUUGGAAUUCUCGGGUGUCAAGG` is reported as 1.14.
